Measurements of several laboratories.
Lines come from different studies, so protocols differ. ± gives the spread as reported.
MAPK14: Mitogen-activated protein kinase 14 (MAPK14, Homo sapiens, UniProt Q16539)
Chain of UniProt Q16539 (whole entry, looked up): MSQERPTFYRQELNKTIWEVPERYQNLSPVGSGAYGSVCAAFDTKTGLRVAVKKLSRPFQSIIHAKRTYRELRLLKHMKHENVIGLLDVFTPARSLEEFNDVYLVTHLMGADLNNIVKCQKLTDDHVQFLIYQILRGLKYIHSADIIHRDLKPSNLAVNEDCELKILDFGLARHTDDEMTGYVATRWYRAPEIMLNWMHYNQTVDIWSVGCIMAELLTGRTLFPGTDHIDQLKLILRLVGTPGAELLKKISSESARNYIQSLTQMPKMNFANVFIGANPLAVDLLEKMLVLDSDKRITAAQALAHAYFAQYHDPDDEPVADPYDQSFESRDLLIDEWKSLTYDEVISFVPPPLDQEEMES
TDP1: Tyrosyl-DNA phosphodiesterase 1 (TDP1, Homo sapiens, UniProt Q9NUW8)
Chain of UniProt Q9NUW8 (whole entry, looked up): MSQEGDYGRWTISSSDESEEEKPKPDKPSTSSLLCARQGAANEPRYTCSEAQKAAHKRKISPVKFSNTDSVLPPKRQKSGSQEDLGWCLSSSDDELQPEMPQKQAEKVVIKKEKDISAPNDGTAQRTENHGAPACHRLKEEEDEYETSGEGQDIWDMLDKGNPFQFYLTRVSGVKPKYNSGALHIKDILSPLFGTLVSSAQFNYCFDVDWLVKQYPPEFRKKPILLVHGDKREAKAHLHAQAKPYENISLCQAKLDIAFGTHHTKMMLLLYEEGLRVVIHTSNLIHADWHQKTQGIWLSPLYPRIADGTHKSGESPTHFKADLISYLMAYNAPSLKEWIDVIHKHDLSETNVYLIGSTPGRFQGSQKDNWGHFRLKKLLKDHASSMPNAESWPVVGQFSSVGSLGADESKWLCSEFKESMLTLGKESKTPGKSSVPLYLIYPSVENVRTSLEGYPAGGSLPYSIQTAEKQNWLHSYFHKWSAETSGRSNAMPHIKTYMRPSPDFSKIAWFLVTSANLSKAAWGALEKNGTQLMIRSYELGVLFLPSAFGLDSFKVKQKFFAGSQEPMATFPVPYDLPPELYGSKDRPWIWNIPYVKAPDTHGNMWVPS
ABCC1: Multidrug resistance-associated protein 1 (ABCC1, Homo sapiens, UniProt P33527)
Chain of UniProt P33527 (whole entry, looked up): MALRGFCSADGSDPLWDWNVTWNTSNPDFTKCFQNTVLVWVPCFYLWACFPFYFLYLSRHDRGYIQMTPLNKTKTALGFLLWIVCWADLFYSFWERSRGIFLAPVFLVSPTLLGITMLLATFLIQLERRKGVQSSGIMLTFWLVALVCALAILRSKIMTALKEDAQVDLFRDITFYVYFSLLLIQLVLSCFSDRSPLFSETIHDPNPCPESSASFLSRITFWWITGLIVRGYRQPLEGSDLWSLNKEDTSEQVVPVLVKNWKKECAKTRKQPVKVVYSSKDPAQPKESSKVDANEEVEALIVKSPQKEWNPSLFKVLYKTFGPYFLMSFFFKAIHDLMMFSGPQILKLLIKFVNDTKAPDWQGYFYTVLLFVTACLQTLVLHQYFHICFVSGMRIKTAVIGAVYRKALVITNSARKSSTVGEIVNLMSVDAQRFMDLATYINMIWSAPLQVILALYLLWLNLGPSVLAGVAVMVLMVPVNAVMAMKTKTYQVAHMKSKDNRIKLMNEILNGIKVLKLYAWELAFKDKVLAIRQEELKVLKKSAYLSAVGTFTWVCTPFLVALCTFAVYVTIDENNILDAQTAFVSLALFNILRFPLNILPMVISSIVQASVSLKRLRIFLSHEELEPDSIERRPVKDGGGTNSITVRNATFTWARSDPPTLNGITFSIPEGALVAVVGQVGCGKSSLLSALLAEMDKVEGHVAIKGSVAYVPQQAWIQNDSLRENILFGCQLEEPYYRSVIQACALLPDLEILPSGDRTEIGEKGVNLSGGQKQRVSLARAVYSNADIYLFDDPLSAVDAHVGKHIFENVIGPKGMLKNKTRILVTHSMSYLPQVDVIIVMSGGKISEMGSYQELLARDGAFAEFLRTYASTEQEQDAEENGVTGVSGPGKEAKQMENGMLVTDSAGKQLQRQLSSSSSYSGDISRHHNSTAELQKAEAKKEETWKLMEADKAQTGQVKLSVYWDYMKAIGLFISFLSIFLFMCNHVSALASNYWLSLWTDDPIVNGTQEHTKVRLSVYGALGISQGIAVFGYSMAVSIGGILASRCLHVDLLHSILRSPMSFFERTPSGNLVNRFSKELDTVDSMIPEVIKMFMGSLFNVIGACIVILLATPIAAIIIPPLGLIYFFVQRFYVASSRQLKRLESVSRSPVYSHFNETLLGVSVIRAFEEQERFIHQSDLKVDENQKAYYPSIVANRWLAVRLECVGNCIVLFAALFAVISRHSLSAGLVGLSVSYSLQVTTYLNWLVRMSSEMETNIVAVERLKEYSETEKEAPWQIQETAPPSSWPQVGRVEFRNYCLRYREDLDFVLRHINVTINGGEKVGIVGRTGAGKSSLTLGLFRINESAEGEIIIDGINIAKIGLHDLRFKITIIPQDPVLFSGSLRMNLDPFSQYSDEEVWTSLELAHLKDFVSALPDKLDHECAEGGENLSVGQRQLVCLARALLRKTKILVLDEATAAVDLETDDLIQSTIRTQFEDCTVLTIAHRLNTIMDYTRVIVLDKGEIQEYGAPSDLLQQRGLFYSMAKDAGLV
Seed linoleate 13S-lipoxygenase-1: Seed linoleate 13S-lipoxygenase-1 (Glycine max, UniProt P08170)
Chain of UniProt P08170 (whole entry, looked up): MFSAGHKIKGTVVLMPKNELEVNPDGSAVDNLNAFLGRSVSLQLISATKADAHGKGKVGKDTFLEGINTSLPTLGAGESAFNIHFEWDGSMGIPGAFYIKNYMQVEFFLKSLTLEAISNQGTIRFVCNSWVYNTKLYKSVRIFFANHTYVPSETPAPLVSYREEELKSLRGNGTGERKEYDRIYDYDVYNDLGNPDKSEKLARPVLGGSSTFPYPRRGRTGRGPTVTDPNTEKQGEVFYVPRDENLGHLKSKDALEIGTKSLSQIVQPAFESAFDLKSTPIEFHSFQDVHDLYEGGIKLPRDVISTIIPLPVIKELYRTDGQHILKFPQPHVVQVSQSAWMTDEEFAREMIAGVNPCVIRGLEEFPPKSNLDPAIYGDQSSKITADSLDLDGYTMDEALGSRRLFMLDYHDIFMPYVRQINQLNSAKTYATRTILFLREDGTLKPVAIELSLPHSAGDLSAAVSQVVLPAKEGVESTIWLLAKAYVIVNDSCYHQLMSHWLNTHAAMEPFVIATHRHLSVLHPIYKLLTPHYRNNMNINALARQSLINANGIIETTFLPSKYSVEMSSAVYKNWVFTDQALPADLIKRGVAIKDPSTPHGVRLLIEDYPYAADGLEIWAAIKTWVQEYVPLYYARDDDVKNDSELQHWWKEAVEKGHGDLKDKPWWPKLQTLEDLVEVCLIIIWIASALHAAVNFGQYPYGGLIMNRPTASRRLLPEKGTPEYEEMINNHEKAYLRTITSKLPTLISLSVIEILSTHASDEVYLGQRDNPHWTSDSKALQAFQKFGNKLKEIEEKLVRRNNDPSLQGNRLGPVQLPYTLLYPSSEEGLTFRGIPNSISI
Chain of UniProt Q16881 (whole entry, looked up): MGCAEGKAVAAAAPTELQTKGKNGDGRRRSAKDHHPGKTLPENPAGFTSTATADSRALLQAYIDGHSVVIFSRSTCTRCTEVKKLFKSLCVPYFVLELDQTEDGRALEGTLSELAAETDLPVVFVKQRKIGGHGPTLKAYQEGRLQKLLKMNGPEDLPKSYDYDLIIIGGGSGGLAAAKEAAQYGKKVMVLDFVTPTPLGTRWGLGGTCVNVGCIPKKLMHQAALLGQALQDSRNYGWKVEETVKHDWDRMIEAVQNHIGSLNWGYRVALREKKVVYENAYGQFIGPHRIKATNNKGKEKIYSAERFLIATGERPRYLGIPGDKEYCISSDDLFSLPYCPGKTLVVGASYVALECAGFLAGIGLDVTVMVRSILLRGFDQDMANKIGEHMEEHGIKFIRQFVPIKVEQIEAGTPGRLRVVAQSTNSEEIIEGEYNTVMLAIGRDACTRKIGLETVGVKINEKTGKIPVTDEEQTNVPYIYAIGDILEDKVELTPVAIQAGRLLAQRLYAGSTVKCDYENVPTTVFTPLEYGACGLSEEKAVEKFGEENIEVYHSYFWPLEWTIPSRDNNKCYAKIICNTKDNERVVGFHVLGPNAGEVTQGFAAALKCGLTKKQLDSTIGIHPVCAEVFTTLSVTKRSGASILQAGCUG
Chain of UniProt P21709 (whole entry, looked up): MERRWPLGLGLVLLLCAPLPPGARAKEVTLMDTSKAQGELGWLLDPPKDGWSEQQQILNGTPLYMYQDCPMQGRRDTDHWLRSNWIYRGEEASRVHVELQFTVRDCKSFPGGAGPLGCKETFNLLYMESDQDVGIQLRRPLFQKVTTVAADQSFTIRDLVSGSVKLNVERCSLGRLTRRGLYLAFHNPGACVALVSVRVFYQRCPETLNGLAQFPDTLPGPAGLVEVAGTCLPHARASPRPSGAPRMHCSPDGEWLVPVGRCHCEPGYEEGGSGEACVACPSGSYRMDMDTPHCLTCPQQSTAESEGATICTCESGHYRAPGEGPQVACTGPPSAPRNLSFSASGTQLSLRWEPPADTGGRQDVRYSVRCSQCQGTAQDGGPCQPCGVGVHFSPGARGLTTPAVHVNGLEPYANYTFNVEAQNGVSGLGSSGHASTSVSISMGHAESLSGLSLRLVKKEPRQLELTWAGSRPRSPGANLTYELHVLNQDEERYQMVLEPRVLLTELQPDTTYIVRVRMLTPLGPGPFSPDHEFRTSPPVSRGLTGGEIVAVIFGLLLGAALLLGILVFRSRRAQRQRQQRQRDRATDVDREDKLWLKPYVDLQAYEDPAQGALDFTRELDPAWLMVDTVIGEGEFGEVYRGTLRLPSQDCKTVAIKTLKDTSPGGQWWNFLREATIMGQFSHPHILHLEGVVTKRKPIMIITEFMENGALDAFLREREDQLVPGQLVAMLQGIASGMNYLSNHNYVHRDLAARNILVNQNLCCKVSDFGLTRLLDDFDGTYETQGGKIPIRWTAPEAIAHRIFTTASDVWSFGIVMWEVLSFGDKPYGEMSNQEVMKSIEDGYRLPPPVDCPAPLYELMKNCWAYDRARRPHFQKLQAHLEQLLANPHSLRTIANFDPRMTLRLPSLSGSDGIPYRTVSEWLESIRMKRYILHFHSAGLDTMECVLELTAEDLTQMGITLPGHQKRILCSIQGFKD

With `CNc1cncc(-c2ccc(OC)c(OC)c2)n1` the inhibition was 62.3% (MAPK14; primary fragment screen; 1 mM, with: ATP 10 µM).
`COc1ccc2[nH]cc(C[C@H](NC(=O)CCN)C(=O)N[C@@H](Cc3ccc(Cl)cc3)C(=O)N[C@@H](Cc3ccncc3)C(N)=O)c2c1` gave an inhibition of 25% (EphA3 receptor; ephrin-A5 binding, ELISA; 500 µM).
For `Nc1nc(Nc2ccccc2)nc2ccccc12`, the inhibition was 90% (MAPK14; primary fragment screen; 1 mM, with: ATP 10 µM).
`O=C(O)c1ccc(Nc2c(-c3ccc(CON=Cc4ccc(N5CCCC5=O)cc4)cc3)nc3cc(-c4ccccc4)ccn23)cc1` gave an inhibition of 91% (TDP1; enzyme activity, inhibitor; 100 µM).
`Cc1cc(O)c2c(c1)C(=O)c1cc3oc(=O)cc(-c4ccccc4)c3c(O)c1C2=O` has an inhibition of 22.3 ± 0.17% (mushroom tyrosinase; enzyme activity; 50 µg/mL, with: L-DOPA).
For `O=C1c2ccccc2C(=O)c2c1ccc1c2C(C(=O)NCc2ccccc2)C(=O)C1c1ccccc1` (stereo not shown), the inhibition was 33.2 ± 1% (mushroom tyrosinase; enzyme activity, inhibitor, spectrophotometry; 25 µg/mL, with: L-DOPA substrate).
`O=C(O)c1ccc(Nc2c(-c3ccc(CON=Cc4ccc(-c5cnccn5)cc4)cc3)nc3cc(-c4ccccc4)ccn23)cc1` has an inhibition of 102% (TDP1; enzyme activity, inhibitor; 100 µM).
`c1ccc(CNc2cnccn2)cc1` gave an inhibition of 28.5% (MAPK14; primary fragment screen; 0.25 mM, with: ATP 10 µM).
`CCn1c(C)c(Sc2ccc(C)cc2)c(=O)n1-c1ccccc1Cl` gave an inhibition of 65.9% (JAK2 (Homo sapiens, UniProt O60674); enzyme activity, inhibitor, ADP detection; 1 µM).
For `COc1cc(/C=C/C(=O)c2ccc3ccccc3c2)ccc1OCc1ccccc1`, inhibition read “no inhibition” (ABCC1; calcein efflux, flow cytometry; 10 µM).
`Cc1cc(O)c2c(c1)C(=O)c1cc3oc(=O)cc(-c4ccc(Cl)cc4)c3c(O)c1C2=O` has an inhibition of 43.4 ± 0.48% (mushroom tyrosinase; enzyme activity; 100 µg/mL, with: L-DOPA).
`CCc1ccc(NC(=O)C(C)Sc2nnc(C3CCN(C(=O)Nc4ccccc4)CC3)n2CC)cc1` (stereo not shown) has an inhibition of 86.6% (Seed linoleate 13S-lipoxygenase-1; enzyme activity, inhibitor; 250 µM).
`NCCCC[C@H](NC(=O)[C@H](CCCCN)NC(=O)[C@@H]1CCCN1C(=O)CNCCCN(CC[C@H](N)C(=O)O)C[C@H]1O[C@@H](n2cnc3c(N)ncnc32)[C@H](O)[C@@H]1O)C(N)=O`: inhibition “no inhibition” (METTL5, with Trm112 (Homo sapiens, UniProt Q9NRN9); methyltransferase activity; 1 µM).
With `Cc1cc(O)cc2c1C(=O)c1c(cc3oc(=O)cc(-c4ccccc4)c3c1O)C2=O` the inhibition was 30.2 ± 0.88% (mushroom tyrosinase; enzyme activity; 50 µg/mL, with: L-DOPA).
`Cc1ccc(NC(=O)C2C(=O)C(c3ccccc3)c3ccc4c(c32)C(=O)c2ccccc2C4=O)cc1` (stereo not shown) gave an inhibition of 70 ± 1.09% (mushroom tyrosinase; enzyme activity, inhibitor, spectrophotometry; 50 µg/mL, with: L-DOPA substrate).
The inhibition of `Cc1ccc2c(c1C)NC(=O)C2(O)CC(=O)c1ccc2c(c1)OCO2` (stereo not shown) is reported as 28% (Uncharacterized protein (Trypanosoma brucei brucei, UniProt Q386Q8); enzyme activity, inhibitor, coupled colorimetric; Trypanosoma brucei; 100 µM).
The inhibition of `COc1cc(C(=O)NC2CCC(N3CCN(CC4CCC5(CCCC5)C4)CC3)CC2)c(F)cc1Nc1ncc2c(n1)N(C1CCCC1(F)F)CC(F)(F)C(=O)N2C` (stereo not shown) is reported as 0.96% (EPHA1 (Homo sapiens, UniProt P21709); cell-free assay, TR-FRET; 10 µM).
With `Cc1c2c(cc3oc(=O)cc(-c4ccccc4)c13)C(=O)c1cccc(O)c1C2=O` the inhibition was 61.45 ± 0.14% (mushroom tyrosinase; enzyme activity; 50 µg/mL, with: L-DOPA).
For `CCn1c(SC(C)C(=O)Nc2cc(C)ccc2C)nnc1C1CCN(C(=O)Nc2ccccc2)CC1` (stereo not shown), the inhibition was 89.5% (Seed linoleate 13S-lipoxygenase-1; enzyme activity, inhibitor; 250 µM).
For `NCCCC[C@H](NC(=O)[C@@H]1CCCN1C(=O)[C@@H]1CSSC[C@H](N)C(=O)N[C@@H](Cc2ccc(O)cc2)C(=O)N[C@@H](Cc2ccccc2)C(=O)N[C@@H](CCC(N)=O)C(=O)N[C@@H](CC(N)=O)C(=O)N1)C(=O)NCC(N)=O`, the inhibition was over 50% (AVPR1A (Homo sapiens, UniProt P37288); ligand displacement, radioligand; 10 µM).
`O=C1c2ccccc2C(=O)c2c1ccc1c2C(C(=O)Nc2ccccc2)C(=O)C1c1ccccc1` (stereo not shown) gave an inhibition of 66.2 ± 0.81% (mushroom tyrosinase; enzyme activity, inhibitor, spectrophotometry; 100 µg/mL, with: L-DOPA substrate).
`Cc1c2c(cc3oc(=O)cc(-c4ccc(O)cc4)c13)C(=O)c1cccc(O)c1C2=O` has an inhibition of 34.9 ± 0.41% (mushroom tyrosinase; enzyme activity; 50 µg/mL, with: L-DOPA).
`CC[C@H](C)[C@H](NC(=O)[C@@H]1CSSC[C@H](NC(=O)[C@H](Cc2ccc(O)cc2)NC(=O)CNC(C)=O)C(=O)N[C@@H](CO)C(=O)N[C@@H](CCCNC(=N)N)C(=O)N[C@@H](CO)C(=O)N[C@@H](Cc2ccc(O)cc2)C(=O)N2CCC[C@H]2C(=O)N2CCC[C@H]2C(=O)N[C@@H](C(C)C)C(=O)N1)C(=O)N1CCC[C@H]1C(=O)N[C@@H](CC(=O)O)C(N)=O` has an inhibition of 20% (Mannan-binding lectin serine protease 1 (Homo sapiens, UniProt P48740); enzyme activity, inhibitor; 15 µM, with: 10 nM MASP-1).
`CC(C)C[C@H](NC(=O)[C@H](CCC(N)=O)NC(=O)[C@H](CCCNC(=N)N)NC(=O)[C@H](CCCNC(=N)N)NC(=O)[C@@H](NC(=O)[C@H](CCCNC(=N)N)NC(=O)[C@@H](NC(=O)[C@H](CO)NC(=O)[C@@H](N)CS)[C@@H](C)O)C(C)C)C(N)=O` has an inhibition of about 50% (NCF1 (Homo sapiens, UniProt P14598); superoxide production, inhibitor, EPR; COS-Nox2 cell lysate; 10 µM).
For `Cc1c2c(cc3oc(=O)cc(-c4ccc(Cl)cc4)c13)C(=O)c1cccc(O)c1C2=O`, the inhibition was 67.47 ± 0.14% (mushroom tyrosinase; enzyme activity; 100 µg/mL, with: L-DOPA).
Under inhibition, `CC1CC(=O)c2c3c(n(CCc4ccccc4)c2C1)-c1ccccc1C3=O` (stereo not shown) is recorded as “inhibited” (ABCC1; calcein efflux; HEK293 expressing MRP1; 2 µM; baseline: verapamil 35 µM as 100%).
With `COc1cc(OC)c2c(c1)C(=O)c1cc3oc(=O)cc(C)c3c(O)c1C2=O` the inhibition was 49.4 ± 0.31% (mushroom tyrosinase; enzyme activity; 50 µg/mL, with: L-DOPA).
For `CCC(=O)N(C)c1ccc(Cl)c(Cl)c1`, the inhibition was 10.3% (CCKAR (Homo sapiens, UniProt P32238); ligand displacement, radioligand; 10 µM).
The inhibition of `CC(C)c1csc2nc[nH]c(=O)c12` is reported as 36% (MAPK14; primary fragment screen; 0.25 mM, with: ATP 10 µM).
For `Cc1cc(O)cc2c1C(=O)c1c(cc3oc(=O)cc(-c4ccc(O)cc4)c3c1O)C2=O`, the inhibition was 45.8 ± 0.52% (mushroom tyrosinase; enzyme activity; 100 µg/mL, with: L-DOPA).
With `O=C1c2ccccc2C(=O)c2c1ccc1c2C(C(=O)Nc2ccccc2Cl)C(=O)C1c1ccccc1` (stereo not shown) the inhibition was 55.21 ± 0.26% (mushroom tyrosinase; enzyme activity, inhibitor, spectrophotometry; 50 µg/mL, with: L-DOPA substrate).
`COc1cc(O)c(C(=O)/C=C/c2ccccc2)c(O)c1OC` has an inhibition of 28.9% (DPP4 (Sus scrofa, UniProt P22411); enzyme activity, inhibitor, absorbance; 50 µg/mL).
The inhibition of `COc1cc(/C=C/c2cc(C)n[nH]2)ccc1O` is reported as 37% (TXNRD1 (Homo sapiens, UniProt Q16881); enzyme activity; MCF7; 25 µM, 48 h).
For `COc1cc(Oc2c(OC)cc(C)c(Br)c2O)c(C(=O)O)c(C)c1O`, the inhibition was 13.4 ± 0.8% (Gag-Pol polyprotein, reverse transcriptase (gag-pol, Human immunodeficiency virus 1, UniProt P03366); enzyme activity, inhibitor, PicoGreen fluorescence; 10 µM).

Excerpt of the above:
`CCc1ccc(NC(=O)C(C)Sc2nnc(C3CCN(C(=O)Nc4ccccc4)CC3)n2CC)cc1` (stereo not shown) has an inhibition of 86.6% (Seed linoleate 13S-lipoxygenase-1; enzyme activity, inhibitor; 250 µM).
With `COc1cc(OC)c2c(c1)C(=O)c1cc3oc(=O)cc(C)c3c(O)c1C2=O` the inhibition was 49.4 ± 0.31% (mushroom tyrosinase; enzyme activity; 50 µg/mL, with: L-DOPA).
Under inhibition, `CC1CC(=O)c2c3c(n(CCc4ccccc4)c2C1)-c1ccccc1C3=O` (stereo not shown) is recorded as “inhibited” (ABCC1; calcein efflux; HEK293 expressing MRP1; 2 µM; baseline: verapamil 35 µM as 100%).
